Experimental data of several laboratories.
Numbered parts are unrelated; each lists some results of a single study.
Sequence of UniProt P06493 (whole entry, looked up): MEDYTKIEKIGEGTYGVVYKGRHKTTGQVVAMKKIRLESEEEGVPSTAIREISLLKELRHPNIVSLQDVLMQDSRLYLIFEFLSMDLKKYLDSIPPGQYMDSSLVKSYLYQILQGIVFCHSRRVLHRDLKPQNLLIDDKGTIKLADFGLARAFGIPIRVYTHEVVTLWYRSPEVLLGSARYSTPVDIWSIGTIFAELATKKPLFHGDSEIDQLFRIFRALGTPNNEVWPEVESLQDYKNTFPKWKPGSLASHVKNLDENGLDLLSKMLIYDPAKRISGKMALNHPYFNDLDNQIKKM
Sequence of UniProt P32298 (whole entry, looked up): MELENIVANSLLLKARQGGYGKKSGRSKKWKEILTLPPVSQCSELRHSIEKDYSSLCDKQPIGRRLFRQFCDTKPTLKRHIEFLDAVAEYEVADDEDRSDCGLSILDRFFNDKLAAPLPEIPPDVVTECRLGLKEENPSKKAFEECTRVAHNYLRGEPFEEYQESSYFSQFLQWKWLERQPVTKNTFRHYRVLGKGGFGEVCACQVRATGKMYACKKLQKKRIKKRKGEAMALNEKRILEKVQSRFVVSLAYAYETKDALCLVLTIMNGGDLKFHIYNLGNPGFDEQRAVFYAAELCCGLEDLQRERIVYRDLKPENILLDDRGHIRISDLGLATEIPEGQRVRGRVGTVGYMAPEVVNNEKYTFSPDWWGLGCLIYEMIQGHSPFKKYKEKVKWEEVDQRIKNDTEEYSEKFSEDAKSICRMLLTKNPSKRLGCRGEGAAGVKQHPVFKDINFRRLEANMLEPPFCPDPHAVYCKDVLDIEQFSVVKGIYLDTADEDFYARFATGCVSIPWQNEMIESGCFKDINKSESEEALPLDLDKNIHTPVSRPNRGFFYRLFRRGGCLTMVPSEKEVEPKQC
Sequence of UniProt Q8N4C8 (whole entry, looked up): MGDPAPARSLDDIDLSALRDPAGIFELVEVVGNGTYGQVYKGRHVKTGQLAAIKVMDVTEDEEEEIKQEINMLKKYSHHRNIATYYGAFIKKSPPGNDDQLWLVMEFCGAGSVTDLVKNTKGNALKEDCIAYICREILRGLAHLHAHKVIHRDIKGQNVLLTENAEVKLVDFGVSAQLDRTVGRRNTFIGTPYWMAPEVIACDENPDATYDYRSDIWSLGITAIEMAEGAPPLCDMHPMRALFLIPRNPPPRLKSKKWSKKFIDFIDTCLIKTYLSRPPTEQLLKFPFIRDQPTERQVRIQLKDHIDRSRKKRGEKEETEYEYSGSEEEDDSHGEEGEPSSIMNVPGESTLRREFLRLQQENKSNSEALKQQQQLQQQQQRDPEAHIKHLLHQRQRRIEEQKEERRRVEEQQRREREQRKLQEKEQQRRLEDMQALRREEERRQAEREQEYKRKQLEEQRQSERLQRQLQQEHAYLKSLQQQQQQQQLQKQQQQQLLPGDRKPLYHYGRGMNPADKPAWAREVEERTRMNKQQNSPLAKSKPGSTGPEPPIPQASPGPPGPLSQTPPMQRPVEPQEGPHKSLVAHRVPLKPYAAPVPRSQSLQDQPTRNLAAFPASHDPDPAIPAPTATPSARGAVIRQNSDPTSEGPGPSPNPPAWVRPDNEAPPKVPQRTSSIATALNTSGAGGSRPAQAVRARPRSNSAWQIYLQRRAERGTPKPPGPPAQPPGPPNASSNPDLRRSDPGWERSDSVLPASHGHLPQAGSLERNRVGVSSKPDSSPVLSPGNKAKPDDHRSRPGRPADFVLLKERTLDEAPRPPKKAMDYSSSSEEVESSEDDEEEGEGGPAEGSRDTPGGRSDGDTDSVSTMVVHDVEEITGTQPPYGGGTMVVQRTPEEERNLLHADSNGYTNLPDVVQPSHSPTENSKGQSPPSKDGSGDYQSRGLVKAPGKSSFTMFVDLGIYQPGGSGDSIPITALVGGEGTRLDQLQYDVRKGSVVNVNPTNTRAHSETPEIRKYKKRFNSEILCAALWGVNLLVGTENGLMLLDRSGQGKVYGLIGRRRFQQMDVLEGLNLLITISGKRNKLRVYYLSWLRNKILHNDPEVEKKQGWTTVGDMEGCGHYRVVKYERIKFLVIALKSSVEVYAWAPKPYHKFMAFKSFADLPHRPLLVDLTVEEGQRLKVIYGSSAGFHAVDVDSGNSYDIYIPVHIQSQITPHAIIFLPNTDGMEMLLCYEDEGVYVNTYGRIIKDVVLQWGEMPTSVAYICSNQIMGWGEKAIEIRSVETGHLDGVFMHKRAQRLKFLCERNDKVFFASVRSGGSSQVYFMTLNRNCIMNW
Sequence of UniProt P50750 (whole entry, looked up): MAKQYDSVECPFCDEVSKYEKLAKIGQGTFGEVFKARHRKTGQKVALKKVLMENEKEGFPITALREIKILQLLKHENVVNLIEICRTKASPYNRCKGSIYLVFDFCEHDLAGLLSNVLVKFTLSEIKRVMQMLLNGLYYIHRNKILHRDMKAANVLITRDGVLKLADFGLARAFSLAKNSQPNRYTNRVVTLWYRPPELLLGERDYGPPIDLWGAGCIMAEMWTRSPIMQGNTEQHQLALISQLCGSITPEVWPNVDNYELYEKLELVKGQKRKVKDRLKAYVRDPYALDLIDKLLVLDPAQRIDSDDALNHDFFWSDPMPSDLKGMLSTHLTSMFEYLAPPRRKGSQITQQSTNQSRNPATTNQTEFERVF
Sequence of UniProt Q16566 (whole entry, looked up): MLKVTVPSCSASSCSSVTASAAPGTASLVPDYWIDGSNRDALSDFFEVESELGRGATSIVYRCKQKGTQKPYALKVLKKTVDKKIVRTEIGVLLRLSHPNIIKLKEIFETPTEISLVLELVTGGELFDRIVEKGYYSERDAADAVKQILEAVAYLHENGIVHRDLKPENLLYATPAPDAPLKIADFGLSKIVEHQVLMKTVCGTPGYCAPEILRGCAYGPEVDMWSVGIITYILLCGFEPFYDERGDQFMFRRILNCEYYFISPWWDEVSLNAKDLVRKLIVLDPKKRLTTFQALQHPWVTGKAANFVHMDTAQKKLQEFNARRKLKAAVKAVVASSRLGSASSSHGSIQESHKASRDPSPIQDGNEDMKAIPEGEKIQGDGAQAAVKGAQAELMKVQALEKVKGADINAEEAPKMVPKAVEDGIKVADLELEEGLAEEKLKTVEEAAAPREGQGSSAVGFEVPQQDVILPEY
Sequence of UniProt Q8N568 (whole entry, looked up): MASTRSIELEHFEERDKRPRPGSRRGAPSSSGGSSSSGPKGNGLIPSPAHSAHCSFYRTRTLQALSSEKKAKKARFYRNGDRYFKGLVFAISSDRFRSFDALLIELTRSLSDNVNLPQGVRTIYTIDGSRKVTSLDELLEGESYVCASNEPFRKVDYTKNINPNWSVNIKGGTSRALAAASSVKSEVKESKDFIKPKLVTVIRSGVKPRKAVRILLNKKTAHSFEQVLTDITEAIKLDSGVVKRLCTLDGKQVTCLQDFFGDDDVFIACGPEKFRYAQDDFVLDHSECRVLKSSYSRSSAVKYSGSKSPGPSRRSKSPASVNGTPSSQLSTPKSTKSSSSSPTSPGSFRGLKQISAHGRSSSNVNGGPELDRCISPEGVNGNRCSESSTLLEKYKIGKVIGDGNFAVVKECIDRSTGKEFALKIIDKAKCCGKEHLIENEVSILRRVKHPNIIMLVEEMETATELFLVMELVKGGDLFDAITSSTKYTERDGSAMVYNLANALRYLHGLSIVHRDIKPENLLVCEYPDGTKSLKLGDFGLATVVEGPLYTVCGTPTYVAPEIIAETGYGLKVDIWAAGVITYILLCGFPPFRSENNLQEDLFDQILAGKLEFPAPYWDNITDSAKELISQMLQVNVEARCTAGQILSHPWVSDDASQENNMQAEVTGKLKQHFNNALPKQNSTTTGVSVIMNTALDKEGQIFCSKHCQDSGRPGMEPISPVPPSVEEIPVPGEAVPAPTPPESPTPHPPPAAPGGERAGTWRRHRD
Sequence of UniProt Q15759 (whole entry, looked up): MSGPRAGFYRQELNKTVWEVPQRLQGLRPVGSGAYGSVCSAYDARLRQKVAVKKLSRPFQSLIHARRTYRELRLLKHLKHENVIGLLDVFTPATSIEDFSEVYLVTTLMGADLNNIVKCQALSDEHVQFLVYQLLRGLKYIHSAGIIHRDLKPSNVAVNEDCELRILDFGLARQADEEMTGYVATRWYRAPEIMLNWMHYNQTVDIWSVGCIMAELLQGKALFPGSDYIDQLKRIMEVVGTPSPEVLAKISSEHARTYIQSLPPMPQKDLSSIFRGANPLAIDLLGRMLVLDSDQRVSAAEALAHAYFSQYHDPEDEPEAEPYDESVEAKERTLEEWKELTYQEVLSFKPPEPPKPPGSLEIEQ

Set 1 — cell line: mouse MPNST tumor cells; method: high-content immunofluorescence imaging; item: nuclear SOX9; concentration: 10 µM; time: 12 h; notes: mean of 2 replicates; baseline: DMSO control; direction: higher = more nuclear SOX9
Structure (SMILES) | nuclear SOX9 intensity
CC(C)NCCN(C(C)C)S(=O)(=O)c1ccc(Cl)cc1Cl | 135 % of DMSO
CC(NC(=O)Cc1cc(F)cc(F)c1)C(=O)NC(C(=O)OC(C)(C)C)c1ccccc1 (centres unmarked) | 102 % of DMSO
COc1nc2sc(C(=O)NC3CC3)c(N)c2c(C)c1Cl | 88.3 % of DMSO
Cc1cc(NC(=O)Nc2ccc(N(C)C)cc2)c2cc(F)cc(F)c2n1 | 136 % of DMSO
CC1(C)C[C@@H]1C(=O)N/C(=C\CCCCSC[C@H](N)C(=O)O)C(=O)O | 112 % of DMSO
CCCCNc1ccc(C(=O)OCCN(C)C)cc1 | 99.5 % of DMSO

Set 2 — species: human; matrix: microsomes or S9; concentration: 2 µM; time: 0.5 h
SMILES | remaining compound
CCOc1cc(=O)n2c(c1C(=O)NCc1cccc(F)c1)CCCCC2 | 54.8%
CCOC(=O)c1ncn2c(N)c(C(N)=O)nnc12 | 73.9%
Cc1nc2c(c(C)c(C)n2CCN2CCCC2)c(-c2ccc(Cl)cc2)c1[C@H](OC(C)(C)C)C(=O)O | > 100%
CCCc1nc(-c2ccc3ccccc3c2)cc2ccsc12 | 87%
OCCNc1nc(Nc2ccc(Cl)cc2)c2nc[nH]c2n1 | 51.8%
CCn1c(=O)c2sccc2n2c(CCCC(=O)NCCc3ccc(S(N)(=O)=O)cc3)nnc12 | 94.5%
O=C(c1cn2cc(Cl)ccc2n1)N1CCC(c2ccc(Cc3ccccc3F)cn2)CC1 | 44.5%

Set 3 — read-out: ligand displacement; concentration: 10 µM
Target: Histamine H2 receptor (HRH2, Homo sapiens, UniProt P25021)
Sequence of UniProt P25021 (whole entry, looked up): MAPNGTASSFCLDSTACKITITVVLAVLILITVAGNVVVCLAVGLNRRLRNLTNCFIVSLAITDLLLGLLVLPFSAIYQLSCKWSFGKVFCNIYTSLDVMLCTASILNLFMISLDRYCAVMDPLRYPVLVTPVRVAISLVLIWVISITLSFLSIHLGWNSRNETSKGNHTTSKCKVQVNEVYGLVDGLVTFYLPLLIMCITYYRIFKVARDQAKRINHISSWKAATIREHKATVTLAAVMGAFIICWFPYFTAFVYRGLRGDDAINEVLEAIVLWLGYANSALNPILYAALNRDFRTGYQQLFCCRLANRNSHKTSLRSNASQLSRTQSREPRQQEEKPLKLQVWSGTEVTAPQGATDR
SMILES | inhibition [%]
CCC(=NO)C(C)=Cc1ccc(F)c(C)c1 | -11.2
CC[C@H](CC(=O)O)n1c(=O)c2ncccc2n(Cc2cn(C)c3cc(C)cc(C)c23)c1=O | -4.71
CC(=O)N1CCC(c2ccc(C(=O)NC3=NCCN3)cc2C(F)(F)F)CC1 | -9.37
Cn1cc(Cl)c2c(Oc3c(F)cc(Nc4cc(Cl)nc(N)n4)cc3F)ccnc21 | 16.7
CN(C)C(=O)c1sc2nc(N3CCC(S(C)(=O)=O)CC3)cc(C(F)(F)F)c2c1N | -1.35
CN(C)c1ncnc(-c2ccc3nc(Nc4cc(CN5CCN(C(=O)CC(F)(F)F)CC5)ccn4)[nH]c3c2)c1Cl | 32.6

Set 4 — read-out: enzyme activity; action: inhibitor; concentration: 0.5 µM; baseline: control
Compound: N#C/C(=C(/N)SC1C=CC=CC1)c1cccc(C(O)c2ccncc2)c1 (centres unmarked)
target | remaining activity
Serine/threonine-protein kinase Nek3 (NEK3, Homo sapiens, UniProt P51956) | 102%
Cyclin-dependent kinase 1, with cyclin A (CDK1, Homo sapiens, UniProt P06493) | 90.8%
Cyclin-dependent kinase 9, with cyclin K (CDK9, Homo sapiens, UniProt P50750) | 87%
Dual specificity mitogen-activated protein kinase kinase 1 (MAP2K1, Homo sapiens, UniProt Q02750) | 92.3%
G protein-coupled receptor kinase 4 (GRK4, Homo sapiens, UniProt P32298) | 97.7%
Mitogen-activated protein kinase 14 (MAPK14, Homo sapiens, UniProt Q16539) | 86.9%
Serine/threonine-protein kinase PLK3 (PLK3, Homo sapiens, UniProt Q9H4B4) | 94%
Tyrosine-protein kinase TXK (TXK, Homo sapiens, UniProt P42681) | 92.2%
Mitogen-activated protein kinase 11 (MAPK11, Homo sapiens, UniProt Q15759) | 94%
Rho-associated protein kinase 1 (ROCK1, Homo sapiens, UniProt Q13464) | 102%
Serine/threonine-protein kinase MRCK beta (CDC42BPB, Homo sapiens, UniProt Q9Y5S2) | 117%
MAP/microtubule affinity-regulating kinase 4 (MARK4, Homo sapiens, UniProt Q96L34) | 101%
Vascular endothelial growth factor receptor 2 (KDR, Homo sapiens, UniProt P35968) | 100%
cGMP-dependent protein kinase 2 (PRKG2, Homo sapiens, UniProt Q13237) | 110%
Misshapen-like kinase 1 (MINK1, Homo sapiens, UniProt Q8N4C8) | 94.9%
Dual specificity protein kinase CLK3 (CLK3, Homo sapiens, UniProt P49761) | 102%
Calcium/calmodulin-dependent protein kinase type IV (CAMK4, Homo sapiens, UniProt Q16566) | 103%
RAC-beta serine/threonine-protein kinase (AKT2, Homo sapiens, UniProt P31751) | 103%
Serine/threonine-protein kinase DCLK2 (DCLK2, Homo sapiens, UniProt Q8N568) | 97.1%
Serine/threonine-protein kinase PAK 3 (PAK3, Homo sapiens, UniProt O75914) | 102%
Hepatocyte growth factor receptor (MET, Homo sapiens, UniProt P08581) | 109%
Dual specificity protein kinase CLK4 (CLK4, Homo sapiens, UniProt Q9HAZ1) | 95.5%
Ribosomal protein S6 kinase alpha-4 (RPS6KA4, Homo sapiens, UniProt O75676) | 109%
Discoidin domain-containing receptor 2 (DDR2, Homo sapiens, UniProt Q16832) | 92.2%

Set 5 — read-out: enzyme activity; action: inhibitor; concentration: 10 µM
Target: Calcium/calmodulin-dependent protein kinase type II subunit alpha (CAMK2A, Homo sapiens, UniProt Q9UQM7)
Sequence of UniProt Q9UQM7 (whole entry, looked up): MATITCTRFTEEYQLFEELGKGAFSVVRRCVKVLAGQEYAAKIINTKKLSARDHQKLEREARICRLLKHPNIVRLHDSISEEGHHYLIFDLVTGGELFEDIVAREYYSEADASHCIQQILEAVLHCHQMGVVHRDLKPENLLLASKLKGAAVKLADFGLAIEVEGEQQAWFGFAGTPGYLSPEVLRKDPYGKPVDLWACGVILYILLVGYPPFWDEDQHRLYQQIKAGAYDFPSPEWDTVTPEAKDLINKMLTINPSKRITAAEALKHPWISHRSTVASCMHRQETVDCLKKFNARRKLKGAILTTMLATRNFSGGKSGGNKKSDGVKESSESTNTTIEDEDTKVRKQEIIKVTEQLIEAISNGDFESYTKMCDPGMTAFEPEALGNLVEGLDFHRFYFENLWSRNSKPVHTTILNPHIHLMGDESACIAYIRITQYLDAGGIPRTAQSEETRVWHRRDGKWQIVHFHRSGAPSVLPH
SMILES | inhibition [%]
C/C=C1/C(=O)C[C@H]2[C@@H]3CCC4=CC(=O)CC[C@]4(C)[C@H]3CC[C@]12C | -63
COc1c(O)cc2oc(-c3ccc(O)c(O)c3)cc(=O)c2c1O | -19
CC(=O)Oc1c(C)c(C)c2c(c1C)CC[C@@](C)(CCC[C@H](C)CCC[C@H](C)CCCC(C)C)O2 | 15
CCCCCCCCOC(=O)c1cc(O)c(O)c(O)c1 | 8
C=C1CC23C[C@H]4[C@@H]5[C@@]6(C)C[C@H](OC(C)=O)C[C@]57C(N4C6)[C@@]2(O)[C@H](OC(C)=O)[C@H]1[C@@H](O)[C@H]37 | -6
CC(C(=O)O)c1ccc(C(=O)c2cccs2)cc1 (centres unmarked) | -4
O=c1cccccc1O | 7
C=C[C@H]1[C@H](O[C@@H]2O[C@H](CO)[C@@H](O)[C@H](O)[C@H]2OC(=O)c2c(O)cc(O)cc2-c2cccc(O)c2)OC=C2C(=O)OCC[C@H]21 | -2
O=c1c(O)cccc2cc(O)c(O)c(O)c12 | 0
COC(=O)CC/C(C)=C/Cc1c(O)c2c(c(C)c1OC)COC2=O | -53
